Measurements of several laboratories.
PIK3CA: Phosphatidylinositol 4,5-bisphosphate 3-kinase catalytic subunit alpha isoform (PIK3CA, Homo sapiens, UniProt P42336)
PIK3CA E545A: Phosphatidylinositol 4,5-bisphosphate 3-kinase catalytic subunit alpha isoform (PIK3CA, Homo sapiens, UniProt P42336, E545A)

SMILES	target	test	system	conditions	how to read	quantity	result
CCN1CCN(Cc2ccc(C(=O)Nc3ccc(C)c(NCc4cnc5[nH]ccc5c4OC)c3)cc2C(F)(F)F)CC1	PIK3CA	binding, competition with immobilised ligand	–	1 µM	–	remaining binding	100%
Cc1cccc(O[C@H]2CCC[C@@H](C(C)CNCc3ccncc3)C2)c1 (relative stereo)	PIK3CA	enzyme activity, inhibitor	–	10 µM	–	inhibition	-5%
COc1c(Cl)cccc1Nc1c(-c2ccncc2C#C[C@@]2(C)CCCN2C(=O)/C=C/CN(C)C)[nH]c2c1C(=O)NCC2	PIK3CA (Homo sapiens, UniProt P42336, E542K)	binding, competition with immobilised ligand	–	3 µM	–	remaining binding	85%
COc1cc(Nc2nccc(-c3cnn4nc(OC)ccc34)n2)cc(C(F)(F)F)c1	PIK3CA (Homo sapiens, UniProt P42336, Q546K)	binding	–	1 µM	–	remaining binding	100%
Cc1ccc(-c2c(/C=C(\C#N)C(=O)NC(C)C)n(CCCO)c3ncnc(N)c23)cc1	PIK3CA (Homo sapiens, UniProt P42336, M1043I)	cell-free assay, competition with immobilised ligand	–	1 µM	–	remaining binding	88%
CNC1C[S+]2CC[S+]3CC[S+](C1)[Ru-4]321([N]=C=S)[n]2c3ccc(OC)cc3c3c4c(c5cc(F)c[n+]1c5c32)C(=O)NC4=O (stereo not shown)	PIK3CA E545A	KinomeScan	–	0.1 µM	baseline: untreated	remaining binding	82%
CC(=O)c1cnc(N)nc1N1CC[C@H]1c1nn2ccc(Cl)c2c(=O)n1-c1ccccc1	PIK3CA	KiNativ	Jurkat cell lysate	1 µM, 0.25 h	–	target engagement	-7.6%
CC(C)=CC1OC(C)(C)C2C=C3C(=O)C(Cl)=CC(O)C3C3C(O)C4OC4C(=O)C132 (stereo not shown)	PIK3CA (Homo sapiens, UniProt P42336, C420R)	cell-free assay, competition with immobilised ligand	–	10 µM	–	remaining binding	66%
O=c1c(-c2ccc(Cl)c(CN3CCOCC3)c2)coc2cc(O)ccc12	Phosphatidylinositol 4,5-bisphosphate 3-kinase catalytic subunit alpha isoform, with p85 (PIK3CA, Homo sapiens, UniProt P42336)	enzyme activity, inhibitor	–	1 µM	–	remaining activity	101%
COc1cc(Nc2nc(C)cc(-c3cnn4nc(OC)ccc34)n2)cc(C(F)(F)F)c1	PIK3CA E545A	inhibitor	–	1 µM	baseline: control	remaining activity	77%
Cc1nc2c(F)cc(-c3nc(Nc4ccc(CNC(=O)CCCCCCC(=O)NO)cc4)ncc3F)cc2n1C(C)C	Phosphatidylinositol 4,5-bisphosphate 3-kinase catalytic subunit alpha isoform, with p85 (PIK3CA, Homo sapiens, UniProt P42336, E545K)	enzyme activity, inhibitor	–	1 µM	–	inhibition	25%
CNC(=O)C1CCN(c2cc(C)c(F)cc2NC(=O)c2ccc(-c3cc(O)ccc3C)c(C)c2)CC1	PIK3CA (Homo sapiens, UniProt P42336, H1047Y)	binding, competition with immobilised ligand	–	1 µM	–	remaining binding	65%
C=CC(=O)N1CCCC(n2c(=O)c3ncccc3n(Cc3ccc(Oc4ccccc4)cc3)c2=O)C1 (stereo not shown)	PIK3CA E545A	cell-free assay, competition with immobilised ligand	–	1 µM	–	remaining binding	90%
